Assay results from different studies.
Lines come from different studies, so protocols differ. ± gives the spread as reported.

SMILES | assay | test system | setting | how to read | endpoint | result
CNCc1ccc(-c2[nH]c3cc(F)cc4c3c2CCNC4=O)cc1 | – | human, fasted, plasma | oral, 600 mg, single dose, median | – | half-life | 18.8 h
CC(=O)N[C@@H](Cc1ccccc1)C(=O)N[C@H]1CCCNC(=O)[C@H](CCCNC(=N)N)NC(=O)[C@H](Cc2c[nH]c3ccccc23)NC(=O)[C@@H](CC2CCCCC2)NC(=O)[C@@H]2CCCN2C1=O | – | C57BL/6J mice, brain | oral, 1 mg/kg | – | elimination half-life | 1.58 h
Nc1cc(-c2ccccc2)ccc1Cn1cncc1CNc1ccc(-c2nc3ccccc3s2)c(-c2ccccc2)c1 | – | female BALB/c mice, plasma | oral, 50 mg/kg single dose | – | AUC(0-5 h) | 24700 ng·h/mL
Cc1cccc(C)c1OCC(=O)N[C@@H](Cc1ccccc1)[C@@H](O)C[C@H](Cc1ccccc1)NC(=O)[C@H](C(C)C)N1CCCNC1=O | USP paddle apparatus | Tween in phosphate buffer | concentration not given, 60 min, pH 6.8, 37 °C | – | dissolution efficiency | 25%
Cc1ccc2[nH]c(=O)c(CC(=O)O)c(-c3ccccc3)c2c1 | potentiometric | – | – | – | logP | 3.16
CCN(CC)CC#CCOC(=O)C(O)(c1ccccc1)C1CCCCC1 (stereo not drawn) | mitochondrial swelling | BALB/cByJ female mouse liver mitochondria | 30 min, together with: succinate + rotenone | baseline: CaCl2 maximal swelling | EC20 | 303 µM
CC[C@H](C)[C@H](NC(=O)[C@H](CC(C)C)NC(=O)[C@H](Cc1c[nH]c2ccccc12)NC(=O)[C@H](C)NC(=O)[C@@H](NC(=O)[C@H](Cc1ccccc1)NC(=O)[C@H](CC(=O)O)NC(=O)[C@H](CCCNC(=N)N)NC(=O)[C@H](C)NC(=O)[C@H](C)NC(=O)[C@H](CC(C)C)NC(=O)[C@H](C)NC(=O)[C@H](CC(=O)O)NC(=O)[C@H](CC(C)C)NC(=O)[C@@H](NC(=O)[C@@H](NC(=O)[C@H](C)NC(=O)[C@H](CC(C)C)NC(=O)[C@H](CCC(=O)O)NC(=O)[C@H](CO)NC(=O)[C@H](CO)NC(=O)[C@H](Cc1ccccc1)NC(=O)[C@@H](NC(=O)CNC(=O)[C@H](CCC(=O)O)NC(=O)CNC(=O)[C@@H](N)Cc1cnc[nH]1)[C@@H](C)O)[C@@H](C)O)[C@@H](C)CC)[C@@H](C)CC)C(=O)N[C@@H](C)C(=O)N[C@H](C(=O)N[C@@H](CCCCN)C(=O)N[C@H](C(=O)N[C@H](C(=O)N[C@@H](CC(=O)O)C(=O)N[C@@H](CCCCN)C(=O)N[C@@H](CCCCN)C(=O)N[C@@H](CCCCN)C(=O)N[C@@H](CCCCN)C(=O)N[C@@H](CCCCN)C(=O)N[C@@H](CCCCN)C(N)=O)[C@@H](C)O)[C@@H](C)CC)[C@@H](C)O | – | healthy human subjects, plasma | intravenous infusion, 1 mg glepaglutide | baseline: sum of parent and metabolites | share of total exposure | 92%
O=c1ccc2ccccc2o1 | cytochrome c release, ELISA | BALB/cByJ female mouse liver mitochondria | 30 min | baseline: alamethicin maximal release | EC20 | > 100 µM
O=C([O-])CN1CCN(CC(=O)[O-])CCN(CC(=O)[O-])C(Cc2ccc([N+](=O)[O-])cc2)CN(CC(=O)[O-])CC1.[67Ga+3] (stereo not drawn) | RP-TLC | murine plasma | 3 h, 37 °C, 5% CO2 | – | intact radiolabelled complex | 97.6 ± 0.3%
Cc1nc2cccc(OCC(C)(C)C(=O)NC(C)C)c2c(N)c1C(=O)O | – | Sprague-Dawley rat, female, plasma | oral gavage, 30 mg/kg, day 1 | – | Cmax | 62.4 ± 25.9 ng/mL
CNC(=O)c1ccc(-c2cnc3ncc(Cc4ccc5ncccc5c4)n3n2)cc1F | – | human, severe hepatic impairment (Child-Pugh C), plasma | oral, 200 mg single dose | – | Vz/F (mean) | 263 L
CC(=O)N1CCN(c2ccc(OCC3COC(Cn4ccnc4)(c4ccc(Cl)cc4Cl)O3)cc2)CC1 (stereo not drawn) | mitochondrial swelling | BALB/cByJ female mouse liver mitochondria | 30 min, together with: succinate + rotenone | baseline: CaCl2 maximal swelling | EC20 | > 400 µM
S=C(NCCCc1c[nH]cn1)NCCCN(Cc1ccc(Cl)c(Cl)c1)c1ccc(Br)cn1 | – | male C57BL/6 mouse, plasma | intraperitoneal, 30 mg/kg, 2 h | – | concentration | 3430 ng/mL
COc1cccc(-c2ccc(NC(=O)C3=C(C(=O)O)CCC3)c(F)c2)c1 | – | male human, plasma | oral, 30 mg, multiple doses, once daily | – | Vd/F | 13.1 L
CC(C)(C)c1cc(NC(=O)Nc2ccc(Oc3ccnc4[nH]c(=O)cnc34)cc2F)n(-c2ccccc2)n1 | – | female NSG and nude mice, tumour | oral, 20 mg/kg, 1 h after last dose, end of therapy | – | tumour concentration | ~7 µM

Some of these lines once more:
SMILES | assay | test system | setting | how to read | endpoint | result
O=c1ccc2ccccc2o1 | cytochrome c release, ELISA | BALB/cByJ female mouse liver mitochondria | 30 min | baseline: alamethicin maximal release | EC20 | > 100 µM
S=C(NCCCc1c[nH]cn1)NCCCN(Cc1ccc(Cl)c(Cl)c1)c1ccc(Br)cn1 | – | male C57BL/6 mouse, plasma | intraperitoneal, 30 mg/kg, 2 h | – | concentration | 3430 ng/mL
